Published values of several laboratories.
A part holds a random share of what one study measured.
UniProt P53779, sequence (whole entry, looked up): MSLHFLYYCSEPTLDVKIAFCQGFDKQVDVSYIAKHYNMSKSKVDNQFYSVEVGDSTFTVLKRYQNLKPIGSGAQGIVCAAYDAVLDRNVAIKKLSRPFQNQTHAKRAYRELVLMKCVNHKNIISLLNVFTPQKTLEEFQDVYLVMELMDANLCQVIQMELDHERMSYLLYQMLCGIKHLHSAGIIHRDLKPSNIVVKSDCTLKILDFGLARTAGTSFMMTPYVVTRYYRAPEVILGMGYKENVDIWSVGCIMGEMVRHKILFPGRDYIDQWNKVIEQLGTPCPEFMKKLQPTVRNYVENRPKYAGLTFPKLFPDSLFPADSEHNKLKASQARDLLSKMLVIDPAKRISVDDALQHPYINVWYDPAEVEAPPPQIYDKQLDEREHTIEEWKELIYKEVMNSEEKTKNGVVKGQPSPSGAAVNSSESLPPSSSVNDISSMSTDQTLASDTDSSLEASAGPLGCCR

Series 1
Target: Centromere-binding protein 1, full length, His-tagged (CBF1, Saccharomyces cerevisiae, UniProt P17106, residues 1-351)
UniProt P17106, sequence (whole entry, looked up): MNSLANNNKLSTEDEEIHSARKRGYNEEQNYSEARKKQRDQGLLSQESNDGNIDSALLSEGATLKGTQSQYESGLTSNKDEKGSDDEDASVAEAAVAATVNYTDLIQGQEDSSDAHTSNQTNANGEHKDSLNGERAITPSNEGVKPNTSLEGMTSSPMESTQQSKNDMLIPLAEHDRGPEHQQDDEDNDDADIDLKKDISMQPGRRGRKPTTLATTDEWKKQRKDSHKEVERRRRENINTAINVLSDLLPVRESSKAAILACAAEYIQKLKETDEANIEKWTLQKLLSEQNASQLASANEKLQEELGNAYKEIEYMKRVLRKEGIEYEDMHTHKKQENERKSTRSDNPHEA
Technique: competition protein-binding microarray
Molecule type: double-stranded DNA, one strand shown
Matrix: in vitro
Tested at: 2 µM
Setting: whole 60-bp probe, lowest competitor level
With: Pho4 competitor, 0.05 µM
Reading: higher = stronger binding
Endpoint: fluorescence intensity
AAACCTGGTTCTGCTACCGTGCCAGTCTTTGGTATTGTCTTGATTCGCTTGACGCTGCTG: 53.3 a.u.
AGCCTGTCTATGGCCAAGCCATGTCAAGTACTACAAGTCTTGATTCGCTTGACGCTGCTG: 56.5 a.u.
CGGGGTTAAGTTTGTCGCGTGGGTGGCTTGCAGCAGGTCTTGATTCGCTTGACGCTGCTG: 105 a.u.
CGTCCTAGTGATTGGTATGTGGGTGCCATGAGGAAGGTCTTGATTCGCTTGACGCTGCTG: 97.6 a.u.
AACGGAGACAGAAAGCACGTTGCCGCTTTGAGAACCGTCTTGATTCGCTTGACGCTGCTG: 114 a.u.
TGCGCAACAACTTGTTGTGTGGGTGTATGTCTAGAAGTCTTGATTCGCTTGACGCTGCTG: 75.1 a.u.
TCATTTGGTGTCCATCACGTGGAATACCTCCCCTATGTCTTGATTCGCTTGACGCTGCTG: 909 a.u.
CGTCCTAGTGATTGGTGCGTGGGTGCCATGAGGAAGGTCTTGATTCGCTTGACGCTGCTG: 97.9 a.u.

Series 2
Target: Max-binding protein MNT, bHLH-zipper, MAX partner unstated (MNT, Homo sapiens, UniProt Q99583, residues 220-300)
Technique: protein-binding microarray
Molecule type: double-stranded DNA, one strand shown
Matrix: in vitro
Tested at: not given
Setting: k-mer, scored over probes, only values ≥0.25
Reading: higher = stronger binding
Endpoint: E-score
Residues (chain): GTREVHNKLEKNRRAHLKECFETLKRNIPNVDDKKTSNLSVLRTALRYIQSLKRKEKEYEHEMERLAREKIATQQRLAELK
TCACATGA: 0.391
ATGGCGTG: 0.342
CGCGAGCA: 0.275
AGCCACGA: 0.273
ACACGCAT: 0.345
GGCCACGA: 0.283
ATGTGTTG: 0.259
GGCGGGGA: 0.372

Other studies, line by line
O=C1CCc2cc(Nc3cc(OC4CCOCC4)c([N+](=O)[O-])cc3Cl)ccc2N1  viability (normal-adjacent organoid sample F; CellTiter-Glo; 1 µM, replicate mean; baseline: DMSO): 105%
CN(C)CCCn1cc(C2=C(c3c[nH]c4ccccc34)C(=O)NC2=O)c2ccccc21  remaining activity (MAPK10 (Homo sapiens, UniProt P53779); enzyme activity, inhibitor; 0.5 µM; baseline: control): 99.3%
Cn1cncc1[C@@](O)(COc1ccc(C#N)cc1-c1ccc(OC(F)(F)F)cc1)c1ccc(C#N)cc1  viability (normal-adjacent organoid sample F; CellTiter-Glo; 1 µM, replicate mean; baseline: DMSO): 107%

Excerpt of the above (series 1):
TGCGCAACAACTTGTTGTGTGGGTGTATGTCTAGAAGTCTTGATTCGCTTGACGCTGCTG: 75.1 a.u.
TCATTTGGTGTCCATCACGTGGAATACCTCCCCTATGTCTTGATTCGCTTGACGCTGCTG: 909 a.u.
CGTCCTAGTGATTGGTGCGTGGGTGCCATGAGGAAGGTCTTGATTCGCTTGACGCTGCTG: 97.9 a.u.
